Measurements gathered from unrelated publications.
Parts stem from different laboratories: compare values within a part only. Changes are numbered by the printed parent chain.

Study 1
Substance: PhoQ, residues 284 288 289 292 302 303 ALVSVA
Method: Sort-seq
Refers to: YFP reporter
Matrix: E. coli
Setting: PhoQ-PhoP variant library
Added: 10 µM Mg2+
Relative to: high Mg2+ state
Direction: higher = stronger signaling
target	fold induction
PhoP, residues 12 14 15 18 19 VHTVL (Escherichia coli, UniProt P23836)	25.2
PhoP, residues 12 14 15 18 19 ICWRQ (Escherichia coli, UniProt P23836)	9.98
PhoP, residues 12 14 15 18 19 TQCLL (Escherichia coli, UniProt P23836)	17.2

Study 2
Target: RNA binding protein fox-1 homolog 2, RRM domain, GST-SBP tag (RBFOX2, Homo sapiens, UniProt O43251-10, residues 100-194)
Method: RNA Bind-n-Seq
Molecule type: RNA
Matrix: in vitro
Concentration: 365 nM
Setting: natural RNA segment, single round, ends assumed
Relative to: no-protein control
Direction: higher = stronger binding
Constant ends, left off below: GGGAGUUCUACAGUCCGACGAUC … UGGAAUUCUCGGGUGCCAA
Construct (chain): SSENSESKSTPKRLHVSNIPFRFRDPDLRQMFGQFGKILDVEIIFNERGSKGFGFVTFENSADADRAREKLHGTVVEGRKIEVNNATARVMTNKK
Sequence	RBNS enrichment (R)
UAAGGAGGACAACUAUGAGGUAAAGCCAUCCCCAGACUGACAGCUCUGCCUUUAUCUUGCCUCUGGCCUUAUAUUUCAUACUUUGUUCAAUAUGGCUGGAUAAUAAACAC	0.267
CCGCUUCUCAGCGGUCCAUCUCAGCGUCUCCCUUCAGGAACCGCUGAGUGUCCUCUCUUAACAUCCAAGCCUUUUAAUGAAAUCGUACUGAAAUCUGUAUCAGCUAAGAG	0.282
CCUUUGGGAGCAUGUGUGGCUAGGGUGUGGCAGCCUUUGUCUGACAUGCAGUAUAGUAGGUCCCUGACCUUUACUUGCCUGAAAUCAGCAGUUAUCAAUAAUUCCCACCC	0.311
GAUAGCUUUUGAAGCUUGAACACAUGCCAGUGAGAUGAAAGUUGGCCUUAGCAACUGCCCAGGUCCUGAGAAAUGGAGGGCUUGUUCAUGGGGUUAGAAACCUGCAAAGG	0.347
CUAGCAAGAAGUAUAUAUUUUCUUUGAUUUUUAUUUUCAUUUUCCUUUGCCUGUAUUUAUCAAAGAAAAAGACCAAAAGAUGAUGGUAAAACCUCUGUUUCUAUAGAUUU	0.448
CGGGGCUCUCCCUCCUCCUGCCAUCCUCCCCUCCCGCCCUUCCUGGCUACCUCCUCUGACAUGCGGUCAGAUAAGUCCCGUCUUGUUUGUGAGUACCACAGAAACGCCUG	1.05
CAGCAUCAGGGCAACCCACUUCAGUGUUCUCUUUUAAAAAUCAGUUCCUGCUGGGUGUGGUGGCGCAAGCCUUUAAUCCCUGCACUUGGGAGGCAGCUGCAGAUGGGAUU	0.277
AAUCGGAUUAACUGGAAAAUAUAUCUGAAUUCAACUGCUGACUAUAAAUGGUAUUCUAAUAAAAUUGUGUACUAUCCUGUGUGCUUAGUUUUAAGAUCAACCAAUAGAUA	0.367
AAGCAGUGUGUUCAGUAUGCAAAUCAAUUAUUUUAAGAAUCGCUUUUGUAAAUAUCUUUGUGAAUAUUUUAGUAUUGUCUUUGAUAAUAUUCAACAUUUUCAUGACCUGG	1.17
UUUACAGACGAGAAAACUAAGGCACAAAGUUUAACUUGCCCCAAGCGACAGAGUGGAUAAGUAAAAGGGCGAGGACUGGGACCCUGGUACUCUGAAUGAAGAGCCUGUGC	0.661
AUUGUCUCUGCCUCCUGAGUGCUGAGAUUAGAGGUUGUGUGCCAUCACCUCUGGGUACUUUUUUAUUUUUUUUUAAAGUUGUGCCUUGUAUGCUGGUAAAUUUUGGAGAG	0.39
UCGCCAGCCCUGUAGAAGGCUCCUCUGCAGUGAUCAUCUCUAAUAGAGUUGUCGAGCCUUGGAAUUGAUGCAGCUGUGUAGUGAGAACACAUUUGGCCAUAUUGGUGCUG	0.265

Study 3
Target: Hepatocyte nuclear factor 3-beta, forkhead domain (FOXA2, Homo sapiens, UniProt Q9Y261, residues 142-269)
Method: protein-binding microarray
Molecule type: double-stranded DNA, one strand shown
Matrix: in vitro
Concentration: not given
Setting: k-mer, scored over probes, only values ≥0.25
Direction: higher = stronger binding
Target sequence (chain): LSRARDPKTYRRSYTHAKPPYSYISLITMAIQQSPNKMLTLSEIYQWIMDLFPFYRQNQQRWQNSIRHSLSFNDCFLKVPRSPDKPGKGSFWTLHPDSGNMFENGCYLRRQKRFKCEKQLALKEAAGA
Sequence	E-score
GACAGATA	0.287
AAAGTTAG	0.25
CTGTTTAC	0.4
AATATCTA	0.26
CTATACAC	0.311
AACGCAAC	0.278
GTATATCA	0.306
ACCATACT	0.259
ATTGTTTG	0.331
ATTATTCA	0.3
TAGCATCA	0.281
ATATTCTG	0.268
ATGCCATA	0.312
ATTGTATA	0.352
CTATGTAC	0.286
TATACATA	0.375

Study 4
Target: CCND1, cyclin fold, Cln2 fusion (human)
Method: yeast growth competition, sequencing
Matrix: yeast
Setting: weak parent motif
Relative to: not given
Direction: higher = stronger binding
Parent: RB1 docking peptide (human); PKPLKKLRFDIEG; partner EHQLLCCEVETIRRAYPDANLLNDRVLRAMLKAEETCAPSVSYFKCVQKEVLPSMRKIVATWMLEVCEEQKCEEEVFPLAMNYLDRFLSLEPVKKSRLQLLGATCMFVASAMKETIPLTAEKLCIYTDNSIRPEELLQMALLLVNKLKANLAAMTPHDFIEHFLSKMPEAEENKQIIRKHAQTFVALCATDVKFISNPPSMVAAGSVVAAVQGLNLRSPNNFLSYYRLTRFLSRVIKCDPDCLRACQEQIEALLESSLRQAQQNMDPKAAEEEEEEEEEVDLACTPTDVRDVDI
Substitution	normalised enrichment score
F9S	-0.298
D10V	0.161
L4F	0.583
I11G	-0.458
K6E	0.174
L7N	-0.208
E12S	-0.554
F9L	0.199
K2I	0.635
E12H	-0.391
P3Y	-0.0227
P3Q	-0.453
I11H	0.0217
K5P	0.76
L4T	-0.417
R8D	0.451
F9N	0.734
D10K	0.419
D10S	-0.672
G13A	0.0315
K2D	-0.263

Study 5
Target: ABI1, truncated, D143A, DHFR fusion (Arabidopsis thaliana)
Method: DHFR PCA, deep sequencing
Matrix: yeast
Setting: methotrexate growth selection, single substitutions
Added: (+)-ABA 17 µM
Relative to: wild-type fitted maximum
Direction: higher = stronger binding
Parent: PYL1, truncated, DHFR fusion (Arabidopsis thaliana); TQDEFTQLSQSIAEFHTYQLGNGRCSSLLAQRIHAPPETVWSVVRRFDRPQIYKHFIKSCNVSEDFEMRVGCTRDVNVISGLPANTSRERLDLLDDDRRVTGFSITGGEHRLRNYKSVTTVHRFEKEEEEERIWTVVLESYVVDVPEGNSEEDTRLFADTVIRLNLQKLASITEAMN; partner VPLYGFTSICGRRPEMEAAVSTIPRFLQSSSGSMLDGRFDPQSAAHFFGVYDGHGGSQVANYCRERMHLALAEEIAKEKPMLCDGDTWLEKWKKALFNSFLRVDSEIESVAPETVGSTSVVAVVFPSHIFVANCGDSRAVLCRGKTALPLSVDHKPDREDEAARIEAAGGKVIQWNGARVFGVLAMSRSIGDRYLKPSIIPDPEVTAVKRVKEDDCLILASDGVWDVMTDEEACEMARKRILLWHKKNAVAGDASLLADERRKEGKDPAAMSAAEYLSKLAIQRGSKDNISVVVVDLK
Substitution	relative binding score
D153C	9.43%
S171E	94.2%
R113K	101%
W134S	103%
V136Y	68.4%
C25P	6.34%
C25G	-0.0745%
R46D	27.8%
D159P	-7.49%
L156P	-22.9%
I162G	-11.2%
W41H	-28.5%
L82Y	11.7%
I33R	4.79%
I162F	-15.5%

Study 6
Target: Histone acetyltransferase KAT6A, both winged helices, GST fusion (KAT6A, Homo sapiens, UniProt Q92794, residues 1-181)
Method: protein binding microarray
Molecule type: double-stranded DNA, one strand shown
Matrix: in vitro
Concentration: not given
Setting: 8-mer, flanks averaged, mean of 2 arrays, mostly near background
Relative to: not given
Direction: higher = stronger binding
Construct (chain): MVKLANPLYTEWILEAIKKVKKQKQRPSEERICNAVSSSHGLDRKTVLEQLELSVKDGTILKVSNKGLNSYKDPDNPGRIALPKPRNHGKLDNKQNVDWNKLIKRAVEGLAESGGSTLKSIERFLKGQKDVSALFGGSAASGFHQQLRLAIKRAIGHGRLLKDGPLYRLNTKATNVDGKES
Sequence	E-score
ACCCCAAC	-0.16
GACAGGGA	-0.108
CCAATAAC	-0.00737
AGAGGGCC	-0.0542
AGAGGTGA	-0.182
GTGACCGA	0.111
GCCGAAGA	0.133
AAGGCATG	-0.153
CCCCCTAG	-0.282
AACCAAGA	-0.195
ACACCTAG	-0.197
ACGTAAGA	-0.214
TGAGGAAA	-0.105
ATTTCAAG	-0.117
GCCTCGTA	-0.0464
GAGCATTA	-0.0675
CGCAACAC	0.185
CCCCATCC	-0.107
CCGGCCGA	0.304
TGCAAGCA	0.0178
CTGGACTC	-0.151
AGGATTAG	-0.261
CACGTAAG	-0.0956
CACTTGAG	-0.187
GAAAAATA	-0.0668

Study 7
Target: RING finger protein unkempt homolog, zinc fingers 1-6, GST-SBP tag (UNK, Homo sapiens, UniProt Q9C0B0, residues 30-357)
Method: RNA Bind-n-Seq
Molecule type: RNA
Matrix: in vitro
Concentration: not given
Setting: RNA with constant flanks, human and mouse sites, ends assumed
Relative to: input RNA pool
Direction: higher = stronger binding
Constant ends, left off below: GGGAGUUCUACAGUCCGACGAUC … CAACAGAGGAUUGAGCAUCA
Target sequence (chain): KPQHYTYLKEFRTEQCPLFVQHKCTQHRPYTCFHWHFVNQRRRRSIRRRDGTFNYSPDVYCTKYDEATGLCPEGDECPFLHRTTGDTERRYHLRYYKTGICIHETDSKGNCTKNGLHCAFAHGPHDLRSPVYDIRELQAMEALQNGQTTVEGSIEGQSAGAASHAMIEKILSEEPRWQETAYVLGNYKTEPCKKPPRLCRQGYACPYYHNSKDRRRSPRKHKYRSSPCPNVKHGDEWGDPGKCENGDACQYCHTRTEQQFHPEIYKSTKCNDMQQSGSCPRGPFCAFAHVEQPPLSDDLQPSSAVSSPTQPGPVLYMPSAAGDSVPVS
Sequence	bound/input enrichment [ratio]
CCAUUGUACCCUGCUGUAUAAUAAACAAUCUUAGACAUUUAUCAACUGUUGAUACAAAUGUUAGUCCCUAACCACUUUUUAUAUAUGUUUUAAAUUUUUGAAAUUCAAGUGUACCUGCCA	28.8
UCAUUUUUUGCUGGGGAUAAAAAAGAAGCACACAAACUAAAGGAGGACUUUCGACUGCAUUUUAGAAAUAUUUCAAGAAUUAUGGAUUGUGUUGGUUGUUUUAAAUGUCGUCUGUGGGGA	4.11
GUGGGCAUAUAUAUAUACACGUGCAAAUAUCAGAAUUGUUAAUAAUUUGUUACACAUGGACAUUUGUUCCAAACUGACUAAAAAUCAAUAUAGAUAUUUUAUAUACAUAUAUAUAUAUAA	0.342
GUCGCUCUGUAUGCGAUCAGUGCUGUCUACUUUGCCGGAGUGAUGGUGCGGCUGAUGCUGACUCUGACCCCGGUCGUCUGCAUGCUGUCGGCCAUCGCCUUCUCCAAUGUUUUUGAGCAC	0.0808
GAUUGUCUUCAGUCCUGGGAACCUUGGCCUCGACAGCCCUAUUUAUGCAUACAAGUAAUAUAUAGAUGAAUGUCUCAAGUAAAUAUGGCUUAUGGAUGGUAGUGGAUAAUUUGAUGAGAA	0.561
GAAAAAGAGCAGGAAGUGAAUGCUCGUUUACUUCAUUGUGUGAGUAAACAGAAAAUUUUACUUAGCCAGGCUAGAAGAACUCAGAAACACUUGCAGAUGCUCCUGGCAAAGCAUGUUGUU	0.139
UAAGCCCGGAGCCCGGCGCUUUCCCCGCAAGAUGGACGGUUUCGCCGGCAGUCUCGAUGAUAGUAUUUCUGCUGCAAGUACUUCUGAUGUUCAAGAUCGCCUGUCAGCUCUUGAGUCACG	0.0984
ACAGAUGAAGCUGACCUGGUUCUUGCAAAAGAAGCUAAUGUGAAAUGUCCACAAAUUGUGAUAGCAUUUUAUGAAGAGAGACUGACAUGGCAUGCAUAUCCUGAGGAUGCGGAAAACAAA	0.228
GCUGCUGCUGCUGCUGCAACAGCUGCCUGGACAGGGACCACCUUUACUAAAAAAGCACCAUUCCAAAAUAAACAACUGAAACCAAAACAGCCUCCCAAACCACCACAGAUUCACUAUUGU	0.478
GACAAAACGCACCCUACCUGGAAAGUACUUGGAGAAGAUCGCAGAGCAGAUGCAUUCCCAUAGUAUCAAUGCCCUUCUGAUCAUUGGAGGAUUUGAGCCAGUGGUAAUAUGAGAGAAUGA	0.348
AGGAAAAACCAAACUACAAAGAGAUUUGUUUAUAAUAUACCGCCUAACAGUGAGACAAAGGUAGAAGAUUGCUCAGUGAUGCAGCCCCCUGCUGCCUACCCAGAAGAAAGCAAGGCCUUA	0.259

A few entries again (study 6):
Sequence	E-score
CTGGACTC	-0.151
CCCCCTAG	-0.282
GACAGGGA	-0.108
TGAGGAAA	-0.105
ACGTAAGA	-0.214
AAGGCATG	-0.153
ACCCCAAC	-0.16
CCGGCCGA	0.304
ACACCTAG	-0.197
GTGACCGA	0.111
